Assay results pooled from the literature.
“And” joins repeats or separate records; there may be more than shown.
CHEK2: Serine/threonine-protein kinase Chk2 (CHEK2, Homo sapiens, UniProt O96017)
UniProt O96017, sequence (whole entry, unmodified, looked up): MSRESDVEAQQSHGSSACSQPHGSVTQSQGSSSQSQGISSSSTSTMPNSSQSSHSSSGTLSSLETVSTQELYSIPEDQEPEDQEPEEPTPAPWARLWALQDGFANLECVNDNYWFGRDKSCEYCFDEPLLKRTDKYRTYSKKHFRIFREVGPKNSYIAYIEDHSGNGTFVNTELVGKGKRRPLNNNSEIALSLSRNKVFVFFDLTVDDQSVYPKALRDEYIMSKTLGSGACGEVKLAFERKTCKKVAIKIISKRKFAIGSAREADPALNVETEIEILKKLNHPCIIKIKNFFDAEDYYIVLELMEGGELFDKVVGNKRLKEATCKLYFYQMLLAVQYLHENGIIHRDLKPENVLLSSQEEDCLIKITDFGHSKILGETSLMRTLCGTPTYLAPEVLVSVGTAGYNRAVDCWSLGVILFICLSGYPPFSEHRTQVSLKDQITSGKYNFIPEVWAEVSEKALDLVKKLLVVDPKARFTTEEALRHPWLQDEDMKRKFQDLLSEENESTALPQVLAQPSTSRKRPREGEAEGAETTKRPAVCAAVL

`Nc1nc(Nc2ccccc2)sc1C(=O)c1ccccc1` gave a remaining activity of 27% (CHEK2; enzyme activity, inhibitor; 10 µM).
`COc1cc(Nc2nccc(-c3cnn4nc(OC)ccc34)n2)cc(C(F)(F)F)c1` gave a remaining binding of 100% (CHEK2; binding, competition with immobilised ligand; 1 µM).
The remaining activity of `O=c1c(-c2ccc(Cl)c(CN3CCOCC3)c2)coc2cc(O)ccc12` is reported as 114% (CHEK2; enzyme activity, inhibitor; 1 µM).
`NC(=O)C[C@H]1CCc2sc3ncnc(O[C@H]4CC[C@H](N5CCOCC5)CC4)c3c21` has an inhibition of 3% (CHEK2; enzyme activity, inhibitor; 10 µM).
With `Cc1nc2c(F)cc(-c3nc(Nc4ccc(CNC(=O)CCCCCCC(=O)NO)cc4)ncc3F)cc2n1C(C)C` the inhibition was 64% (CHEK2 (Homo sapiens, UniProt O96017, R145W); enzyme activity, inhibitor; 1 µM).
The remaining activity of `Cc1cccc(-c2ccc3nc(NC(=O)C4CCCO4)nn3c2)c1` (centres unmarked) is reported as 99% (CHEK2; enzyme activity, Dundee kinase panel; 10 µM).
For `Nc1ncc(-c2cc(-c3cnn(CC(F)(F)F)c3)ncc2F)nc1C(=O)NC1CNCC(F)C1` (centres unmarked), the remaining activity was 2.83% (CHEK2; enzyme activity; 1 µM; reference: DMSO control).
For `COc1c(OCCCN2CCOCC2)ccc2c1N=C(NC(=O)c1cnc(N)nc1)N1CCN=C21`, the remaining activity was 111% (CHEK2; kinase activity, inhibitor; 1 µM; reference: untreated control).
The remaining activity of `Cc1cccc(-c2ccc3nc(NC(=O)C4CCCCC4)nn3c2)c1` is reported as 95% (CHEK2; enzyme activity, Dundee kinase panel; 10 µM).
With `c1ccc2c(Nc3cc(C4CCC4)[nH]n3)nc(Nc3ccc4nc[nH]c4c3)nc2c1` the remaining activity was 8% (CHEK2; enzyme activity, inhibitor; 0.25 µM).
`C=CC(=O)N1CCCC(n2c(=O)c3ncccc3n(Cc3ccc(Oc4ccccc4)cc3)c2=O)C1` (centres unmarked) has a remaining binding of 99% (CHEK2; cell-free assay, competition with immobilised ligand; 1 µM).
The remaining activity of `O=C=[N][Ru-4]123([n]4c5ccc(O)cc5c5c6c(c7cc(F)c[n+]1c7c54)C(=O)NC6=O)[S+]1CC[S+]2CC[S+]3CC1` (centres unmarked) is reported as 87% (CHEK2 (Homo sapiens, UniProt O96017, I157T); enzyme activity; 100 nM, human enzyme, together with: 10 µM ATP; reference: untreated).
`COCC12C(=O)NC3C4(C(OC)CC1O)C1CC5(O)C(OC)C(O)C(OC(C)=O)(C1C5OC(=O)c1ccccc1)C3(O)C(OC)C24` (centres unmarked) has a remaining activity of 101% and 95% (CHEK2; kinase activity, inhibitor, ProQinase kinase profiling; 25 µM; reference: control).
With `Cc1cccc(O[C@H]2CCC[C@@H](C(C)CNCc3ccncc3)C2)c1` (relative stereo) the inhibition was 3% (CHEK2; enzyme activity, inhibitor; 10 µM).

Some of these lines once more:
The remaining activity of `Cc1cccc(-c2ccc3nc(NC(=O)C4CCCCC4)nn3c2)c1` is reported as 95% (CHEK2; enzyme activity, Dundee kinase panel; 10 µM).
With `c1ccc2c(Nc3cc(C4CCC4)[nH]n3)nc(Nc3ccc4nc[nH]c4c3)nc2c1` the remaining activity was 8% (CHEK2; enzyme activity, inhibitor; 0.25 µM).
